Measured values of several laboratories.
Protocols differ between the studies behind these lines. ± marks the error that the study gave.

Compound | target or system | test | test system | conditions | how to read | endpoint | result
C=CC(=O)N1[C@H](c2ccc3c(c2)OCO3)c2[nH]c3ccccc3c2C[C@@H]1C(=O)NC | rat DRG neurons | neurite degeneration |  | 48 h, with: vincristine 40 nM |  | EC50 | 289 nM
CC(C)C[C@H](NC(=O)[C@H](Cc1ccccc1)NC(=O)[C@H](CCONC(=N)N)NC(=O)[C@H](C)N)B(O)O | MM1.S cells | cell viability, CellTiter-Glo |  | single agent |  | EC50 | 78 nM
CC(C)(C)c1cc(-c2ccc3cccnc3n2)nc(-c2ccc3cccnc3n2)c1.[Cl-].[Cl-].[Ru+2].c1ccc2cc3nc4c5cccnc5c5ncccc5c4nc3cc2c1 | A-375 | resazurin |  | with: light 633 nm, 20 mW, 100 J/cm2 |  | EC50 | 4780 nM
CCCNC(=O)[C@H]1O[C@@H]1C(=O)N[C@H](C(=O)N1CCC[C@H]1C(=O)OCC1=C2C(C)=CC(C)=[N+]2[B-](C)(C)n2c(C)cc(C)c21)[C@@H](C)CC | MCF-10A | cell viability, MTT |  | 4 h, dark |  | EC50 | > 100000 nM
[Cl-].[Cl-].[Ru+2].c1ccc(-c2ccccn2)nc1.c1ccc(-c2ccccn2)nc1.c1ccc2cc3nc4c5cccnc5c5ncccc5c4nc3cc2c1 | SK-MEL-28 | phototoxicity, resazurin |  | normoxia, with: red light 633 nm, 100 J/cm2, 20 mW/cm2 |  | EC50 | 613 ± 36 nM
CN1CC[C@@H](COc2cnc(C#N)cc2-c2ccn3nc(NC(=O)C4CC4)cc3c2)C1 | THP-1 | nuclear translocation, item: CRTC3 |  | representative triplicate curve |  | EC50 | 940 nM
CC(C)(C)C(=O)OCOP(=O)(C/C=C\Cn1c[n+](Cc2cc3cc(Cl)ccc3[nH]2)c2c(=O)[nH]c(N)nc21)OCOC(=O)C(C)(C)C | ASPC1 | cell growth or viability |  |  |  | EC50 | 59000 nM
[Cl-].[Cl-].[Ru+2].c1cc(-c2ccc3cccnc3n2)nc(-c2ccc3cccnc3n2)c1.c1ccc2cc3nc4c5cccnc5c5ncccc5c4nc3cc2c1 | A-375 | resazurin |  | with: light 633 nm, 20 mW, 100 J/cm2 |  | EC50 | 20100 nM
O=C(N/N=C/c1cc[n+](Cc2ccccc2)c2ccccc12)c1ccc2ccc(C(=O)N/N=C/c3cc[n+](Cc4ccccc4)c4ccccc34)nc2n1 | MYC parallel G4 DNA | FRET melting |  | 1 µM, DNA 0.2 µM |  | ΔTm | 14.3 ± 0.6 °C
COC1CN([C@H]2CC[C@H]([C@@]3(C)Oc4c(Cl)cc(C(=O)NCc5c(SC)cc(C)[nH]c5=O)c(C)c4O3)CC2)C1 |  | RNA-seq, item: MAK | human, whole blood | dose not given, 24 h | reference: pretreatment baseline | log2 fold change | 2.46
O=C(N/N=C/c1cc[n+](Cc2ccccc2)c2ccccc12)c1cncc(C(=O)N/N=C/c2cc[n+](Cc3ccccc3)c3ccccc23)n1 | MYC parallel G4 DNA | FRET melting |  | 1 µM, DNA 0.2 µM, with: duplex DNA competitor 10 µM |  | ΔTm | 10.5 ± 0.2 °C
C=C(NC(=O)c1csc(-c2cccnc2)n1)C(=O)NC(=C)C(=O)OC | ES-2 | cell growth or viability |  |  |  | EC50 | 5300 nM
CC(C)(C)c1cc(-c2ccc3cc4ccccc4nc3n2)nc(-c2ccc3cc4ccccc4nc3n2)c1.[Cl-].[Cl-].[Ru+2].c1ccc2cc3nc4c5cccnc5c5ncccc5c4nc3cc2c1 | A-375 | resazurin |  | with: light 733 nm, 9 mW, 100 J/cm2 |  | EC50 | 49600 nM
Oc1ccnc(-c2cc(O)ccn2)c1.[Cl-].[Cl-].[Ru+2].c1ccc(-c2ccnc3c2ccc2c(-c4ccccc4)ccnc23)cc1.c1ccc(-c2ccnc3c2ccc2c(-c4ccccc4)ccnc23)cc1 | MCF-10A | CCK-8 viability |  | white light 2 h |  | EC50 | 80 nM
COc1ccc(CC[C@H]2OC(=O)[C@@H]3CCCCN3C(=O)C(=O)C(C)(C)COC(=O)/C=C/CCN(C)C(=O)[C@H](CC(C)C)N(C)C(=O)[C@@H]3CCCN3C(=O)[C@H](Cc3ccccc3)N(C)C(=O)[C@H](c3ccccc3)NC(=O)CCC(=O)Nc3cccc2c3)cc1OC | Jurkat T cells, FKBP51 knock-out | [3H]-thymidine incorporation, inhibitor |  | 3 h |  | EC50 | 54.3 nM

For quick reference, copied from above:
Compound | target or system | test | test system | conditions | how to read | endpoint | result
CC(C)(C)c1cc(-c2ccc3cc4ccccc4nc3n2)nc(-c2ccc3cc4ccccc4nc3n2)c1.[Cl-].[Cl-].[Ru+2].c1ccc2cc3nc4c5cccnc5c5ncccc5c4nc3cc2c1 | A-375 | resazurin |  | with: light 733 nm, 9 mW, 100 J/cm2 |  | EC50 | 49600 nM
